Published values pooled from the literature.
Parts stem from different laboratories: compare values within a part only.

Block 1
Target: Transcription factor Sp1 (SP1, Homo sapiens, UniProt P08047, residues 1-785, full length assumed)
UniProt P08047, sequence (whole entry, looked up): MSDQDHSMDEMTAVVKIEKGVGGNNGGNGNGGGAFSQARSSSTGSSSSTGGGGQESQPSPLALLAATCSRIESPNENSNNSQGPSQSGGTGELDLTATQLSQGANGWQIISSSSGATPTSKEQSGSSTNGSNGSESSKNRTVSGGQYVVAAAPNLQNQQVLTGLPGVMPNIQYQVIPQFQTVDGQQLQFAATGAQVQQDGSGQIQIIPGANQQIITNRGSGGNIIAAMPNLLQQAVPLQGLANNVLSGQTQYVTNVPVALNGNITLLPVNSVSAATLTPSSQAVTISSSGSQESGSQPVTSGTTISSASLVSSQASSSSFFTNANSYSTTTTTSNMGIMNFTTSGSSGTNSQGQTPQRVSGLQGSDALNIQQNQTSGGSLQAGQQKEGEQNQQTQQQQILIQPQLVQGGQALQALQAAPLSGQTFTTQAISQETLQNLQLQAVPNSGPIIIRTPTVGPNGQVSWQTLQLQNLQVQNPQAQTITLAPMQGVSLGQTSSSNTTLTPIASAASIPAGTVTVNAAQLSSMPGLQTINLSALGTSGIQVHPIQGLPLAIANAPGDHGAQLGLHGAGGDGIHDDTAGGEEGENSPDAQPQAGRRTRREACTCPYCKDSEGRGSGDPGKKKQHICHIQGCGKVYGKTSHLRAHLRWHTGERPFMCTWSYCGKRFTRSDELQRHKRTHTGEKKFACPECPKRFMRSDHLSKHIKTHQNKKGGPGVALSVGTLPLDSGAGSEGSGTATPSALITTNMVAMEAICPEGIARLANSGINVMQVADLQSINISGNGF
Method: protein-binding microarray
Molecule type: double-stranded DNA, one strand shown
Sample: in vitro
Concentration: not given
Setting: k-mer, scored over probes, only values ≥0.25
Direction: higher = stronger binding
| Sequence | E-score |
| --- | --- |
| CCCACACA | 0.312 |
| ATTTACGG | 0.282 |
| CCCCAAGC | 0.263 |
| CCCTTCCC | 0.309 |
| CTCCACCC | 0.341 |

Block 2
Target: Transcription factor SOX-2, HMG box (SOX2, Homo sapiens, UniProt P48431, residues 37-118)
UniProt P48431, sequence (37-118, looked up): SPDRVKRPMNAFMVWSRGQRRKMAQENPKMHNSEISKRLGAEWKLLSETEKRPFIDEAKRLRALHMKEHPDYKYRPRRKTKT
Method: protein-binding microarray
Molecule type: hairpin DNA
Sample: in vitro
Concentration: not given
Setting: whole hairpin DNA, median over replicate spots
Reference: not given
Direction: higher = stronger binding
Shared flanks, not repeated: GCAGGCC … GGCCTGCACACTCTTTCCCTACACGAC
| Sequence | median fluorescence [a.u.] |
| --- | --- |
| CACAACAGGCCTCCTGGCCTGTTGTG | 2660 |
| CACCGTGGGCCTCCTGGCCCACGGTG (5mC at 11 29) | 2460 |
| CACAATGAGCCTCCTGGCTCATTGTG | 3380 |
| GACAATGGGCCTCCTGGCCCATTGTC | 3200 |
| TACAATGGGCCTCCTGGCCCATTGTA | 3420 |
| CACAATGCGCCTCCTGGCGCATTGTG (5mC at 15) | 3170 |

Block 3
Target: Sal-like protein 4, full length isoform B (SALL4, Homo sapiens, UniProt Q9UJQ4-2, residues 1-616)
Method: universal PBM
Molecule type: double-stranded DNA, one strand shown
Sample: in vitro
Concentration: not given
Setting: 8-mer, flanks averaged, mean of replicates
Direction: higher = stronger binding
| Sequence | E-score |
| --- | --- |
| AGGGCAAA | -0.0817 |
| TCAAGAGA | 0.0681 |
| ATGGCCCA | -0.0951 |
| ACCCCTTG | -0.196 |
| CCACGACA | -0.0867 |

Further values, each from its own experiment
| Molecule | target | test | test system | setting | how to read | measurement | value |
| --- | --- | --- | --- | --- | --- | --- | --- |
| PhoQ, residues 284 288 289 292 302 303 STVVAA | PhoP, residues 12 14 15 18 19 SEGLL (Escherichia coli, UniProt P23836) | Sort-seq, item: YFP reporter | E. coli | PhoQ-PhoP variant library, with: 10 µM Mg2+ | reference: high Mg2+ state, higher = stronger signaling | fold induction | 10.6 |

Excerpt of the above (block 1):
| Sequence | E-score |
| --- | --- |
| CCCACACA | 0.312 |
| CTCCACCC | 0.341 |
